Measurements from different studies.
Each line is one published result; not all experiments were run side by side. Numbers after ± are the reported error. Where no end group is shown, it is not given here.
GPR17: Uracil nucleotide/cysteinyl leukotriene receptor (GPR17, Homo sapiens, UniProt Q13304)
CXCR4: C-X-C chemokine receptor type 4 (CXCR4, Homo sapiens, UniProt P61073)
SLC10A1: Hepatic sodium/bile acid cotransporter (SLC10A1, Homo sapiens, UniProt Q14973)
UGT1A9: UDP-glucuronosyltransferase 1A9 (UGT1A9, Homo sapiens, UniProt O60656)
T1: RNA aptamer; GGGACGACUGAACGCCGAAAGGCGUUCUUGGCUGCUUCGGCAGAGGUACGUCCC
T2: RNA aptamer optimized 10-59; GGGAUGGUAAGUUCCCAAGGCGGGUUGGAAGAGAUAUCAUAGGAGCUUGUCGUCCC
B1: side-chain stapled; chain AACSFRINSLCG (also: sidechain bridge or staple (positions not given here))

Substance | target | assay | test system | conditions | how to read | endpoint | result
Cc1cc(Cl)ccc1N=Cc1ccc(F)c(Oc2ccccc2)c1 | Catenin beta-1, armadillo repeat region (CTNNB1, Homo sapiens, UniProt P35222) | STD NMR | – | 0.5 mM, pH 7.4, 25 °C | – | STD amplification factor | 3.64
CCCCC#Cc1cn([C@@H]2O[C@H](COP(=O)(O)OP(=O)(O)O)[C@@H](O)[C@H]2O)c(=O)[nH]c1=O | GPR17 | frontal affinity chromatography-MS | immobilized on IAM column | 1 µM, compound mixture | – | breakthrough time | 4.83 min
Cc1ccc(S(=O)(=O)NCc2ccc(CNC(=O)c3ccc(F)cn3)cc2)cc1 | CXCR4 | binding, competitor, rhodamine fluorescence | MDA-MB-231 | semi-quantitative screen, together with: biotinylated TN14003 | – | lowest effective concentration | 1000 nM
CC(C)C[C@H](NC(=O)[C@H](C)NC(=O)[C@H](C)NC(=O)[C@H](CC(C)C)NC(=O)[C@H](CCC(=O)O)NC(=O)[C@H](CCCCN)NC(=O)[C@H](CC(C)C)NC(=O)[C@H](CCCNC(=N)N)NC(=O)[C@H](C)NC(=O)[C@H](CCCNC(=N)N)NC(=O)[C@H](CC(C)C)NC(=O)[C@H](Cc1c[nH]cn1)NC(=O)[C@H](C)NC(=O)[C@H](CC(C)C)NC(=O)[C@H](CCCCN)NC(=O)CNC(=O)CNC(=O)[C@H](CCCCN)NC(=O)[C@H](C)NC(=O)CNC(=O)[C@H](CCCCN)NC(=O)CNC(=O)CN)C(=O)N[C@@H](CCC(=O)O)C(=O)N[C@@H](C)C(=O)N[C@@H](C)C(=O)N[C@@H](C)C(=O)N[C@@H](CCCCN)C(=O)O | Calmodulin-1, Ca2+-bound N-lobe (CALM1, Homo sapiens, UniProt P0DP23) | ITC | isolated calmodulin N-lobe | 50 µM, pH 7.0, 27 °C, 0.5 mM N-lobe, together with: 1 mM CaCl2 | – | association constant K1 | < 18000 M⁻¹
NC(=O)c1cccc2[nH]c(-c3ccc(C(=O)N4CCn5c(nnc5C(F)(F)F)C4)cc3)nc12 | PARP1 (Homo sapiens, UniProt P09874) | DNA binding, fluorescence polarization DNA competition | – | 100 µM, 200 s, together with: unlabeled competitor DNA 2 µM | – | PARP1 bound to DNA | 14.7 ± 2%
c1cc(CN2CCCCC2)ccc1CN1CCCCC1 | CXCR4 | binding, competition binding | MDA-MB-231 | semi-quantitative screen, together with: biotinylated TN14003 | – | lowest effective concentration | 10 nM
CCC1(C)CC(=O)NC1=O (stereo not drawn) | SLC10A1 | inhibitor | HEK293 expressing NTCP | 100 µM, 5 min, together with: taurocholate 10 µM | reference: no compound | taurocholate uptake | 88.2 ± 3.8%
CC1=C(/C=C/C(C)=C/C=C/C(C)=C/C(=O)C(Cl)Cl)C(C)(C)CCC1 | Retinal dehydrogenase 2 (Gallus gallus, UniProt O93344) | time-dependent inactivation, inhibitor | – | – | – | KI | 128 nM
Cc1cc(NC(=O)c2cccc(NC(=O)/C=C/CN(C)C)c2)ccc1Nc1nccc(-c2cccnc2)n1 | PRKDC (Homo sapiens, UniProt P78527) | ATP-biotin probe labeling, KiNativ | A-375 | 1 µM, 3 h, first of two sites | – | inhibition | 34.9%
CC/C=C\CCOC(C)=O | Chilo suppressalis CSP2 | binding, competitive ligand, fluorescence competitive binding | – | highest concentration tested, pH 7.4, protein 2 µM, together with: 1-NPN 2 µM | reference: no ligand | remaining 1-NPN fluorescence | 60.6 ± 3.27%
COc1ccc(/C=C/c2ccc(B3OC(C)(C)C(C)(C)O3)cc2)cc1 | Albumin (ALB, Homo sapiens, UniProt P02768) | fluorescence quenching, van't Hoff | – | concentration not given | – | binding enthalpy | 0.155 kcal/mol
CN(C)c1ccc2c(-c3ccc(C(=O)O)cc3C(=O)[O-])c3ccc(=[N+](C)C)cc-3oc2c1 | T1, RNA aptamer | fluorescence quenching titration | – | pH 7.5, 25 °C, NaCl 15 mM, no Mg2+ | – | Kd | 233 nM
CVLL | Protein farnesyltransferase (Homo sapiens, UniProt P49354+P49356) | enzyme activity, substrate, fluorimetric | peptide | 3 µM, 30 min, together with: 9 µM farnesyl diphosphate | reference: dansyl-GCVLS (set to 1.0) | relative fluorescence increase | < 0.05
CCCCCCCC/C=C\CCCCCCCC(=O)O | Chilo suppressalis CSP2 | binding, competitive fluorescence displacement | – | 30 µM, pH 7.4 | – | fluorescence intensity | 82 ± 3.32%
B1 | DPP4 (Homo sapiens, UniProt P27487) | enzyme activity | – | 200 µM, 37 °C | reference: FAPα over DPP4 | selectivity ratio | 9 fold
Nc1ncnc2c1ncn2[C@@H]1O[C@H](COP(=O)(O)OP(=O)(O)O)[C@@H](O)[C@H]1O | Kinesin heavy chain, motor domain 1-346 (Khc, Drosophila melanogaster, UniProt P17210) | FRET chase | – | 25 °C, 0% glycerol, together with: excess mant-dADP | – | dissociation rate constant | 0.0043 ± 0.0005 s⁻¹
O=C(NC1CCC2(CCCC2)CC1)c1ccc(-c2ccccc2)cc1 | TRPM8 (Homo sapiens, UniProt Q7Z2W7) | Ca2+ entry, antagonist, Fura-2 Ca2+ imaging | HEK293 expressing TRPM8 | together with: icilin 500 nM | – | lowest effective concentration | 3 nM
COc1ccc(CCN2CCC(Nc3nc4ccccc4n3Cc3ccc(F)cc3)CC2)cc1 | Alzheimer paired helical filaments | surface plasmon resonance | – | 150 µM, response per molecular weight | reference: thioflavin S | relative binding | 2.6
CC=CC=CCO | Chilo suppressalis CSP2 | binding, competitive fluorescence displacement | – | 30 µM, pH 7.4 | – | fluorescence intensity | 46.2 ± 0.83%
CNc1nc(Cl)nc2c1ncn2[C@@H]1O[C@H](COP(=O)(O)OP(=O)(O)OP(=O)(O)O)[C@@H](O)[C@H]1O.N.N.N.N | Uracil nucleotide/cysteinyl leukotriene receptor, short isoform (GPR17, Homo sapiens, UniProt Q13304, R283I) | frontal affinity chromatography-MS | mutated receptor IAM column | concentration not given | reference: wild type column | breakthrough time change | 17.1%
Nc1nc2c(ncn2[C@@H]2O[C@H](COP(=O)(O)OP(=O)(O)OP(=O)(O)O)[C@@H](O)[C@H]2O)c(=O)[nH]1 | T2, RNA aptamer optimized 10-59 | ultrafiltration | – | apparent, together with: GTP | – | Kd | 250 nM
Oc1ccc(N=Nc2ccccc2)cc1 | UGT1A9 | substrate | – | pH 7.4, 37 °C | – | Vmax | 1160 pmol/mg/min
CC[C@H](C)[C@H](NC(=O)[C@H](CC(C)C)NC(=O)[C@H](CCCNC(=N)N)NC(=O)[C@H](Cc1c[nH]cn1)NC(=O)[C@@H](NC(=O)[C@H](CCCNC(=N)N)NC(=O)[C@@H]1CCCN1C(=O)[C@@H](NC(=O)[C@H](CCC(N)=O)NC(=O)CN)C(C)C)[C@@H](C)O)C(=O)N[C@H](C(=O)N[C@@H](CC(C)C)C(=O)N[C@@H](C)C(=O)N[C@@H](CC(=O)O)C(=O)N[C@@H](Cc1c[nH]cn1)C(=O)N[C@@H](C)C(=O)N[C@@H](CS)C(=O)N[C@@H](CCC(N)=O)C(=O)N[C@H](C(=O)N[C@H](C(=O)N[C@H](C(=O)N[C@@H](CCC(N)=O)C(=O)N[C@@H](CC(=O)O)C(=O)N[C@@H](Cc1ccccc1)C(=O)N[C@@H](C)C(=O)N[C@@H](CCCNC(=N)N)C(=O)O)[C@@H](C)O)[C@@H](C)CC)[C@@H](C)CC)[C@@H](C)O | NR1D1 (Homo sapiens, UniProt P20393) | NCoR peptide binding, competitor, TR-FRET | – | 1 h, together with: labelled NCoR 2040-2065 peptide | reference: mutant over wild-type peptide | IC50 fold change | 229
O=C1[C@H](CC[C@H](O)c2ccc(F)cc2)[C@@H](c2ccc(O)cc2)N1c1ccc(F)cc1 | SLC10A1 | inhibitor | NTCP-HEK293 | 50 µM | reference: without compound | taurocholate uptake | 62.5 ± 1.4%
Oc1cc(O)c2c(c1)O[C@H](c1cc(O)c(O)c(O)c1)[C@H](O)C2 | UGT1A9 | substrate | – | pH 7.4, 37 °C | – | Vmax | 5130 pmol/mg/min
N.N.Nc1nc(Cl)nc2c1ncn2[C@H]1C[C@H](OP(=O)(O)O)[C@@H](COP(=O)(O)O)O1 | GPR17 | frontal affinity chromatography-MS | immobilized on IAM column | 1 µM, compound mixture | – | breakthrough time | 6.38 min
CC(C)OC(=O)C(C)(C)Oc1ccc(C(=O)c2ccc(Cl)cc2)cc1 | SLC10A1 | inhibitor | HEK293 expressing NTCP | 100 µM, 5 min, together with: taurocholate 10 µM | reference: no compound | taurocholate uptake | 76.3 ± 6%

Excerpt of the above:
Substance | target | assay | test system | conditions | how to read | endpoint | result
B1 | DPP4 (Homo sapiens, UniProt P27487) | enzyme activity | – | 200 µM, 37 °C | reference: FAPα over DPP4 | selectivity ratio | 9 fold
Nc1ncnc2c1ncn2[C@@H]1O[C@H](COP(=O)(O)OP(=O)(O)O)[C@@H](O)[C@H]1O | Kinesin heavy chain, motor domain 1-346 (Khc, Drosophila melanogaster, UniProt P17210) | FRET chase | – | 25 °C, 0% glycerol, together with: excess mant-dADP | – | dissociation rate constant | 0.0043 ± 0.0005 s⁻¹
O=C(NC1CCC2(CCCC2)CC1)c1ccc(-c2ccccc2)cc1 | TRPM8 (Homo sapiens, UniProt Q7Z2W7) | Ca2+ entry, antagonist, Fura-2 Ca2+ imaging | HEK293 expressing TRPM8 | together with: icilin 500 nM | – | lowest effective concentration | 3 nM
COc1ccc(CCN2CCC(Nc3nc4ccccc4n3Cc3ccc(F)cc3)CC2)cc1 | Alzheimer paired helical filaments | surface plasmon resonance | – | 150 µM, response per molecular weight | reference: thioflavin S | relative binding | 2.6
